Published values from different studies.
Numbered parts are unrelated; each lists some results of a single study.

Sample 1
Target: RING finger protein unkempt homolog, zinc fingers 1-6, SBP tag (UNK, Homo sapiens, UniProt Q9C0B0, residues 30-357)
Chain of UniProt Q9C0B0 (30-357, looked up): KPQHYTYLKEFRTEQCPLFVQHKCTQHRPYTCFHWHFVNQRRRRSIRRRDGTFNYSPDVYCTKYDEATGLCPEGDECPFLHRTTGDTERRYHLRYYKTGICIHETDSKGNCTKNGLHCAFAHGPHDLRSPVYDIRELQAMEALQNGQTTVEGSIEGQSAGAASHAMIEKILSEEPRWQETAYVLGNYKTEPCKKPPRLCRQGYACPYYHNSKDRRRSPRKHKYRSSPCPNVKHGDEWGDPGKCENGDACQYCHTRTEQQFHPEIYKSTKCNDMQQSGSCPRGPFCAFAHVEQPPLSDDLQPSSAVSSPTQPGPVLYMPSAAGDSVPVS
Technique: RNA Bind-n-Seq
Form: RNA
Sample: in vitro
Tested at: 100 nM
Notes: RNA with constant flanks, vertebrate orthologous sites, ends assumed
Relative to: input RNA pool
Reading: higher = stronger binding
Constant ends, left off below: GGGAGUUCUACAGUCCGACGAUC … CAACAGAGGAUUGAGCAUCA
Strand | bound/input enrichment [ratio]
GUGCAAGGAGAUUAUUCCAACUAGCGAAUUUAUUAACAGUAAAUUGACAGCAAAAGCAAAUAGGCAGCUUCAAGAUCCUUUAGUAAUCAUGACAGGAAACAUCCCGACAUGGCUCACUGA | 0.714
GAAGUUAUAGAAAAGAGCCAAGCAGUAGCAUUUUCCCCCAUAAAUGGAAGUUAAAAUAAUCAGACCCUGCCUGUUUCCUUGCGCAAGUUUAAGAAUAAAAAAAUACCUCAGUGCUGUGAU | 0.986
ACACUUAUAUCGUGGCAUAUAGUCAACAUGGAAGUAGACCAGCUCUGCUGAUUUGAAAUUUAGAUUUUUUUUAAUUAUGUACUGGGGACAGGUUUUUGUCGCUUUACAUUGCUUCCUAGU | 4.9
CAGGGUGGGACCCGGGACCCGCGGCUCAGUGGCCCGCUAGCCACGUCAGCCAAGCCACUUUAGGUCCAUUUUUUAAUUUUAACAGUGCUCUUCCAUCUUGUGCAUAAGCCUGAGAUUUGG | 2.12
UUCAGGCACAACUGACUGGUUCACAGCAUUCCUUACACGGUUAUCUAUCAAAUGCAAGUGGGGUUAAUUUUCAGGAAACAAGCAGGCAGUCAUCUUUAUCCUGUAGCCCAAUUGGAGAGU | 0.856
AAGAUGGUGGUUGUACAUUAUUUCAUUUAGAAAAUAUAAAAAUUCAUUUUGUUUUGAAGCUAGGUGGUAAAACUGGAAUAGCUACUAUACCCUAGAGAAUGGGGCAGUUGUGCCCUUCCC | 2.11
AUUUGGACCUUGAAGCUCAAUCAGGGGACUAGAGAAGUAAAACAAACUUGUAAAAAUUAAUAGCCAUAUGCAACUGCACAACAGUACUGUCUUUCACACCUGUGCUAACAUAUUUAUGCA | 0.832
CCACUUUUUACCUUCUGAUCACCUCAGUGAGGUAAAACCUCCUUGGCAUUUGGCUGGUACUAGAGCCAGUGAUUCAUAAGAAGUUUUUUUCACAUUUCAUUUCUUUCAUGCUCAUAGACA | 0.293

Sample 2
Target: Histone acetyltransferase KAT6A, both winged helices, GST fusion (KAT6A, Homo sapiens, UniProt Q92794, residues 1-181)
Technique: protein binding microarray
Form: double-stranded DNA, one strand shown
Sample: in vitro
Tested at: not given
Notes: 8-mer, flanks averaged, mean of 2 arrays, mostly near background
Relative to: not given
Reading: higher = stronger binding
Target sequence (chain): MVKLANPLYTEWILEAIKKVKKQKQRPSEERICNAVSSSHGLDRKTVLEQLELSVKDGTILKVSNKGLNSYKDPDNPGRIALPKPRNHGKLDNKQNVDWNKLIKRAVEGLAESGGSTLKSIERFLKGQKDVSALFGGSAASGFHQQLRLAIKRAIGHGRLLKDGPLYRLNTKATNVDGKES
Strand | E-score
AACTGAGG | -0.00451
CATAGTAC | 0.0104
GGGTGAGA | -0.105
GGCGTTGA | 0.0245
CCCTCTGC | -0.185
ACTCTTAA | -0.201
ATTCAGCA | -0.148
ACGGCGAA | 0.327
AGGCTGAA | -0.151
ACATCTAC | -0.0598
GACTGTAC | -0.0606
AACTTGTA | 0.0319
CTTGATCC | -0.0967
AGAGCGTG | 0.186
TTAGCTAA | -0.208
AACTCAAG | -0.0947
GTTTCTAA | 0.119
AGGCATAA | -0.117
AGATTAGA | -0.156
TGGTACCA | -0.107
ACTACTTG | -0.118
CAAGAATA | -0.00343
ACTAATAG | -0.218
GTAGAAAC | -0.0107
CGGAGTTC | 0.125

Sample 3
Target: Fragile X messenger ribonucleoprotein 1, C-terminal low-complexity region (Fmr1, Mus musculus, UniProt P35922)
Technique: RNA Bind-n-Seq
Form: RNA
Sample: in vitro
Tested at: 200 nM
Notes: whole 134-nt RNA, ends assumed
With: 150 mM LiCl
Relative to: input library
Reading: higher = stronger binding
All molecules: 7-deaza-guanosine replaces G
Constant ends, left off below: GGGAGUUCUACAGUCCGACGAUC … UGGAAUUCUCGGGUGUCAAGG
Strand | log2 enrichment
CCUGUGCUACACAUCGUAUGUACCGAAUCGGGUUUUUUUGGGAAAAAGGGUUUUUUUGGGAAAGUAUUAUGUUACGCCGUUCGGAUCUGC | -2.7
CAAGUCCUGUGCUACACAUCGUAUGUACCGAAUCGGGCCCCGGCCCCGGCCCCGGAAAGUAUUAUGUUACGCCGUUCGGAUCUGCACUUC | -1.27
UCCUGUGCUACACAUCGUAUGUACCGAAUCGGUUUUUUGGGGUUUUUUGGGGUUUUUUGGAAAGUAUUAUGUUACGCCGUUCGGAUCUGC | 0.337
UGGCCCUGGUGGCAUGCGGGGAGGAAGAGGUGGCCUCAUGGAUAGUGGUGGUCCCGGUGGAAUGUUCAGAGGUGGCCGUGGUGGAGACAG | 0.0213
UGUGUGCAUUCCCUGCGCCAAGGGCUUCCCCAGCUCUGAGCAGCUCAAUGCGCACGUGGAGACUCACACGGAGGAAGAGCUGUUCAUCAA | -1.9
GUCCUGUGCUACACAUCGUAUGUACCGAAUCGGAAAAAGGGAAAAAGGGGAAAAAGGGAAAGUAUUAUGUUACGCCGUUCGGAUCUGCAC | 0.24
GUCCUGUGCUACACAUCGUAUGUACCGAAUCGGGGUUUUUGGGGUUUUUGGUUUUUGGAAAGUAUUAUGUUACGCCGUUCGGAUCUGCAC | -1.26
GUCCUGUGCUACACAUCGUAUGUACCGAAUCGGCCCCCCGGGCCCCCCGGCCCCCCGGGAAAGUAUUAUGUUACGCCGUUCGGAUCUGCA | 0.204

Sample 4
Target: Prothrombin, mature alpha-thrombin (F2, Homo sapiens, UniProt P00734)
Technique: aptamer microarray, sandwich
Form: DNA with 2'F-ANA
Sample: in vitro
Tested at: 200 nM
Notes: whole 15-mer aptamer, many near background
With: Cy3 exosite-II aptamer, 400 nM
Reading: higher = stronger binding
Strand: GGTTGGTGTGGTTGG
Modification | mean fluorescence intensity [a.u.]
2'F-ANA at 4 8 11 13 15 | 216
2'F-ANA at 1 3 5 6 7 8 9 13 14 | 47.9
2'F-ANA at 1 3 4 5 6 7 8 9 10 12 | 76.3
2'F-ANA at 10 13 14 | 150
2'F-ANA at 3 4 5 7 8 9 10 11 12 14 15 | 51.1
2'F-ANA at 1 3 4 5 6 8 9 10 11 12 13 15 | 52.3
2'F-ANA at 1 3 6 7 9 10 13 14 | 102
2'F-ANA at 4 7 | 376
2'F-ANA at 3 5 6 11 12 13 14 15 | 55.1
2'F-ANA at 1 4 5 6 8 10 11 12 | 104
2'F-ANA at 2 3 5 6 7 9 13 15 | 59.2
2'F-ANA at 2 4 9 13 14 15 | 114
2'F-ANA at 1 2 3 4 5 6 10 13 14 15 | 45.9
2'F-ANA at 1 2 4 6 8 9 | 168
2'F-ANA at 2 5 8 9 12 15 | 176
2'F-ANA at 1 2 8 12 13 | 323
2'F-ANA at 1 2 3 7 8 9 10 12 13 15 | 94.6
2'F-ANA at 2 3 4 5 7 8 10 11 12 13 | 52.1
2'F-ANA at 1 2 7 12 13 | 279
2'F-ANA at 4 6 7 10 11 12 13 14 | 66.2
2'F-ANA at 1 3 6 10 12 14 15 | 92.1
2'F-ANA at 2 3 6 8 10 11 12 13 | 353
